# Measurements collected from several papers.
# Every numbered part comes from another study and shows a few of its results, in no order. Positions count from the first letter of the parent shown.

# Set 1 — technique: RNA Bind-n-Seq; molecule type: RNA; sample: in vitro; tested at: not given; baseline: input RNA pool; reading: higher = stronger binding
# Target: RING finger protein unkempt homolog, zinc fingers 1-6, GST-SBP tag (UNK, Homo sapiens, UniProt Q9C0B0, residues 30-357)
# Chain of UniProt Q9C0B0 (30-357, looked up): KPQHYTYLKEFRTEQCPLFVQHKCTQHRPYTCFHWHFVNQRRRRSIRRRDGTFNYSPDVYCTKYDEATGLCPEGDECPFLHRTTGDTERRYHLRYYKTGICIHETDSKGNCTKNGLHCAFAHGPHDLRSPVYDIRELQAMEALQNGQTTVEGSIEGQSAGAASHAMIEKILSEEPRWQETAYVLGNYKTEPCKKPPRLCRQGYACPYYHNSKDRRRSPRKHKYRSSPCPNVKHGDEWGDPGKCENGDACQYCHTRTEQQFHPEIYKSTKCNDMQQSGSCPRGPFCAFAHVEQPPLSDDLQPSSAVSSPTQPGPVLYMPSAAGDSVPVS
# Setting: RNA with constant flanks, human-mouse chimeric sites, ends assumed
# All sequences stand within: GGGAGUUCUACAGUCCGACGAUC … CAACAGAGGAUUGAGCAUCA
Strand,bound/input enrichment [ratio]
CUUCGGAAAAAAAAAUUACAGGAAAAUACAGUGCUUUCCCUCCCAUAGAUCCACGUUCAAGCUCAAAGAGCAAAGGCUUUGCACGGAGCUCAAACAUCUGAUGAAGAAAGAUUUCUGAGA,0.5
CCUCUGCCCCGCUCUGCAGCCUGGGGACACUGGGCUGGGACCAGAAUCCAGCUUUCUUUUAAAACUCUCAGUGUAACUGUAUCCCGUGACAUUUCAUUUUUUUUAAAUAGUGUAUUUUUU,2.86
GCAGGAUCUUCUAAGUACCAGUGGGACAUUAUGAAAUCCCUUGGCCUCUCUGAUGACGACAUAGUGAAGUUUUCUGAAGCAGAACAUUGGCUUGAUUAUUUCCCACCACUGGCCGUUCAG,0.262
CUGGCACUCUAUCAGAUAUAUUAAUUUUUUAAUGUAGAUAAAAUUUCAAAAAUGAAUGGCUACUUUACACGUUUAACUAGGGUUUUACUACAUAUGUGUACAUAUGUAUAUAUAUAUAUA,7.08
AAAUCGUGUGUGUCCAAUAUUGAAAGUACUUUAUCUGCACUCCAGUAUGUAAGCAGUAUAGUAGUUUCUUUAGAGAAUAGGUCAGCCAUUGUAAAGUACAAUGCAAGCUCAGUCACUCCA,9.24
GGGACUGAUUCAUCCCAAGGACAGGCCACCCCAUUUGAUGCCUGGACUGACGACAGUAUGGAAGGGCCUAGUCAAAAUGUUGAAGCUGAGUCAAUUCAGGAUGCCAUGAGUAUGGAAGAG,0.352
AGAAUCUUGGGACUGUUUUACUUAAUUGGUCAUUGAUAUCUCAACAAGCAUGGAGAUAAGAUUAGAAAUCUUGACAUCAACAGGUAUUAAGCAGAAAAAACCAUGGCCACGUGUCUCCUG,0.141
GUACUGCAGCAGCAGGGCAAGCUGCAGGAAGCACUGAUGCAUUAUAAGGAGGCUAUUCGAAUCAGUCCUACCUUUGCUGAUGCCUACUCUAAUAUGGGAAACACUCUAAAGGAGAUGCAG,0.362
UUGAAAACUGAUUCAAGUAAGUUUGAGUAUCACAAUGUUAGCUUUCUAAUUCCAUAAAGAUAGUUUUUUUUUACAGUUUAUAAUCUGACAUCACCCCCCGUUUAUAAGUAAAGAGCAACU,7.81
UCUGGUCACACUCGUGUGUAUGGUGUUUGCUUUGUGGAUACUUCACUGGGCAAGUUUUUCAUCGGCCAGUUUUCGGAUGACCGCCACUGUUCCAGAUUUAGGACGCUAGUGGCACACUAU,0.168
UCUUAACGUCCAUUUAAAACUUAUUUUUAUAGCUAGAUAAAUAUUGUUAGUCUUAGACAAUAGCUCACAUUUUUUGAAAAGCAUGCUCUCCCUGUCCAUUUGUCUUAUAACAUGACCCAG,105

# Set 2 — technique: universal PBM; molecule type: double-stranded DNA, one strand shown; sample: in vitro; tested at: 600 nM; reading: higher = stronger binding
# Target: Sal-like protein 4, full length isoform A (SALL4, Homo sapiens, UniProt Q9UJQ4, residues 1-1053)
# Chain of UniProt Q9UJQ4 (whole entry, looked up): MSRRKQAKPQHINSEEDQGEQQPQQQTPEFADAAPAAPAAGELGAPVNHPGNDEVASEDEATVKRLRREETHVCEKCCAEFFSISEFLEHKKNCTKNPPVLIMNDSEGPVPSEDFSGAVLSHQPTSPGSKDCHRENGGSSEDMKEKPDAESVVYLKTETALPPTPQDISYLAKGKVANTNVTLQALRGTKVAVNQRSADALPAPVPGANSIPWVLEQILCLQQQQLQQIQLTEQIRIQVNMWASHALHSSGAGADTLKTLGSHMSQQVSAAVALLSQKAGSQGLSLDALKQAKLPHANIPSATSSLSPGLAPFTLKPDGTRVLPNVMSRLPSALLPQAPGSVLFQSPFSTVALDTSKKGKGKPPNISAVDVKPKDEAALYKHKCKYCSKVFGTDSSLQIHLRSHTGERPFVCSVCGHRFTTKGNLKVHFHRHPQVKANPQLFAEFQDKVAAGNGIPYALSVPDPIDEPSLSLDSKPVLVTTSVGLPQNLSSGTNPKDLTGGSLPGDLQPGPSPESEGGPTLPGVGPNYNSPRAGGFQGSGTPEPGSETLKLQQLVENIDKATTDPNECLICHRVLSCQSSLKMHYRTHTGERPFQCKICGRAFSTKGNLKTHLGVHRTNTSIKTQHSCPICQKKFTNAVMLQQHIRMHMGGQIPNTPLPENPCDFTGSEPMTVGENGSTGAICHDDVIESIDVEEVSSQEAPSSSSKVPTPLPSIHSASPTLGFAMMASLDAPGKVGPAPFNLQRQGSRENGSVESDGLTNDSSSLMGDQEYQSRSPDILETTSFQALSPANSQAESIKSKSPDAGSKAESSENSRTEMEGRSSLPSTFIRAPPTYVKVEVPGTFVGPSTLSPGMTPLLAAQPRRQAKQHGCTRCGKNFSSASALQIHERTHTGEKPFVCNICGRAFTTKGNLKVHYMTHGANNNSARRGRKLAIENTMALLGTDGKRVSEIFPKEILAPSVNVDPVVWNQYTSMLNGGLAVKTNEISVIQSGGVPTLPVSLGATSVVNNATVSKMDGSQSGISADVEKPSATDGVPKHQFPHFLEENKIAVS
# Setting: 8-mer, flanks averaged, mean of replicates
Strand,E-score
CAACTCAG,-0.0743
ACCCCAAA,-0.0993
AGATGTGC,-0.00279
ACTAGATA,0.29
CACGGACA,-0.188
GTTGGGGA,-0.197
GCTAGCGA,-0.156
GAAGCTAA,0.0179
ATCACTTA,0.198
CTATACAA,0.24
CGGCACCA,-0.249
GGTCCTCA,-0.142
GTCTGTTA,0.158
ATCGCGGC,-0.165
GGCAATAC,0.0456
CCAATCCC,-0.184
AGATCTAG,-0.0101
AACCATCA,0.186
GAAGATGC,-0.132

# Set 3 — technique: RNA Bind-n-Seq; molecule type: RNA; sample: in vitro; tested at: 365 nM; baseline: no-protein control; reading: higher = stronger binding
# Target: RNA binding protein fox-1 homolog 2, RRM domain, GST-SBP tag (RBFOX2, Homo sapiens, UniProt O43251-10, residues 100-194)
# Setting: natural RNA segment, single round, ends assumed
# All sequences stand within: GGGAGUUCUACAGUCCGACGAUC … UGGAAUUCUCGGGUGCCAA
# Target sequence (chain): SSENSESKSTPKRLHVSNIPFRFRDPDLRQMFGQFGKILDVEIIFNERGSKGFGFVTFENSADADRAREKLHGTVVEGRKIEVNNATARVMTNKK
Strand,RBNS enrichment (R)
AGGCCGAGUGACAGCCAGCCCUGGAACCCCCCGACCCCCGCAGCUGCUGCAGCCAGUGUGCCAGUGUGCGUUCGACAAAUGGAAAAGCAGAUUGGGGCCAGGGAGUCAGC,0.712
CUCCCUCUCAGGAAGCCCAGUUUCAUCCUUAGUACCCCCCCUCGUGCCCGCUGUCGGCUGGUUAUAGCACUUCCACUGCUACUGUCAGAUAGGAAGUGAUCGAAGCAGGG,0.339
CUGUUUGUAGCUGAAUGUUACAUUUUUUUAAAAAUCUCUGUUCAAGCCAGAAGAGUUGAUUAUGAGUGGCCACAGCAACCCUGGCAAGCUGGGCCAAAAAAUUUCAGUAG,0.528
CUGCCGCUGAGAAGGGUUGAUCCUGCAUCUGGGUUUGUUUACAGCAAUUCCUGGACUCGGGGGUAUUUUGGUCACAGGGUGGUUUUGGUUUAGGGGGUUUGUUUGUUGGG,1.94
AUGAUUGCUUAUUUAUGUGUAACAAAUCCCACACAAUCUCAUGGCAACUUCCUUAAUUCCUCCUGGUCAUAUAAUAUAUUUCCAUAGUAUCGUAUACUAUUAUGGAGUAU,0.534
CUGACCACCGAAACGUGCAGGCAUUCUCACUCACACUGGGCAGCCCGCUGUCGGGUCUCUCUAGGCCUAUGAACCACAAAGCAGGGAAGUGGGCACGUUCUCUCGGGGUG,0.331
UGGCAUUGAUGCUAAUAAAUCCUUUGCACAAAAAUUUGAAUAAACUUCCAGUGGUUUCGAUAACGUACAAGAUUGUAUAUUUCCCUCAUUUAUUGUAAUUCAAUAUCUUA,0.461
GAUGCUGUGUUUUGUAUGUUAGUUACACAACUUUGUGUCCUGCCAGGUCAUGUUCUAAAAUUAAGGCUGAGAAAGGUGUGAGGUCGAAGAUCUCAGGCAGCGCUGUUUCC,0.702
AAGUCUUGAAAACAGUGUGAUGCAAUUACUGCUGUUCUAGCCCCCAAAGAGUUUUCUGUGCAAAAUCUUGAGAAUCAAUCAAUAAAGAAAGAUGGAAGGAAGGGAGAAAU,0.678
UUGUUGUUGUUGUUUAUUUGUUAUUUUAAAGGUAAAUUGCACUUUUAAAAAAAUAAUUGGUUGACUUAAUAUAUUUGCUUUUUUUCUCACCUGCACUUAGAGGAAAUUUG,5
UCUCUAGUAGUUAUUUUAAUCUUUAUUUUAACCUGGAUUGCAAAUGUAUGGGGUAUGAGGAGAUAAUGAAAGAAAAGUGGUCCUCAUGCUGGAUAUGUGACUGUUUUGUU,1.87
CAAAGAUCCCACUUAGGAAAGAAGCCCUUUCAAUAGCCAGUAACCAAACUCUCUUUCCCCAUUUCUAUCUCCCAGCCCAGUCACAAAAAUACUCAGCUCCAUCAAGAGGA,0.849

# Set 4 — technique: protein-binding microarray; molecule type: double-stranded DNA, one strand shown; sample: in vitro; tested at: 940 nM top; setting: 60-bp whole probe; added: salmon DNA 0.4 mg/ml; baseline: random background probes; reading: higher = stronger binding; all sequences stand within: GCCTAGCAC … GTCTTGATTCGCTTGACGCTGCTG
# Target: Interferon regulatory factor 5, full length, phosphomimetic (IRF5, Homo sapiens, UniProt Q13568-2, residues 1-514, S451D/S453D/S456D/S462D)
Strand,fitted relative affinity
TTAGGTTTCCTTATCCTGTAGTGCTAG,1.76 z-score
CACGATATCAGTTTCGAGACGTGCTAG,3.91 z-score
GACGGTTTCCGTTTCGGGACGTGCTAG,2.94 z-score
GACTATATCGGGTATCGAGACGTGCTA,1.14 z-score
GACGGACTAGGGTATCGGGACGTGCTA,-0.0231 z-score
TCATATACCCATGTAGAACTGTGCTAG,0.15 z-score
TCATGAATGTGTCTTAAACTGTGCTAG,-0.185 z-score
TCACATCTCTGTCCGTGACTGTGCTAG,0.516 z-score
GACCGTATCGGGTATCGGGACGTGCTA,3.14 z-score
GCGCCTGTAGCCCCTCCAGGGTGCTAG,-0.569 z-score
CCTCCCTCTCCCGGAGTTCCGTGCTAG,0.0628 z-score
GACGGTATCGACTTTCCGGACGTGCTA,4.89 z-score
TCATACTTCTGTTTTTGACTGTGCTAG,0.381 z-score
TTAGGACTGGGGTTTAGGTTAGTGCTA,0.329 z-score
ATAGATTTCGGGTTTCGATTAGTGCTA,5.69 z-score
TTAGGCTTCGACTATCGGTTAGTGCTA,-0.19 z-score
GACGGTTTGGACTTTCGGGACGTGCTA,0.523 z-score
GACAGACTGGGGACTGGGGACGTGCTA,0.0162 z-score

# Set 5 — target: JUND, bZIP domain (human); technique: DHFR protein complementation; sample: yeast; baseline: wild-type JUN-FOS pair; reading: higher = stronger binding
# Setting: single substitutions, most at no-binding floor
# Parent: JUN, bZIP domain (human); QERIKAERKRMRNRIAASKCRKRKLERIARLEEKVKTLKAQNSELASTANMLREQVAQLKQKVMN; partner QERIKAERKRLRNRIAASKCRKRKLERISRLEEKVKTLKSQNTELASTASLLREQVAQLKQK
Change,binding fitness [natural log]
S47N,-0.529
E32K,-0.854
A57K,-0.573
E32I,-1.2
E32M,-1.13
A29H,-0.722
A29Y,-1.06
E33I,-1.18
K39L,-0.621
Q58R,-0.881
S47R,-0.483
E32T,-1
S43I,-0.538
E32S,-1.19
A46C,-1
A57V,-0.911

# Set 6 — technique: protein binding microarray; molecule type: double-stranded DNA, one strand shown; sample: in vitro; tested at: not given; baseline: not given; reading: higher = stronger binding
# Target: Histone acetyltransferase KAT6A, winged helix 1, GST fusion (KAT6A, Homo sapiens, UniProt Q92794, residues 1-85)
# Setting: 8-mer, flanks averaged, mean of 2 arrays, mostly near background
# Construct (chain): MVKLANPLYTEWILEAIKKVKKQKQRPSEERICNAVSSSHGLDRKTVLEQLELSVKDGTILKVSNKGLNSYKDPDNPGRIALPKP
Strand,E-score
AGATTATG,-0.0129
CGGAGACA,0.101
GCTTGAGA,-0.209
CATACACA,-0.125
AGAATTTC,-0.0838
ACTTACTG,-0.0436
GCGATCTA,0.0988
AGGGCGAT,-0.0679
ACGACTTC,-0.059
GCCGCGAC,0.361
GGCTCTCA,0.101
GCTCGAGA,-0.0352
ACCTTAGG,-0.00928
AACTGGCT,-0.258
AGTTTTGA,-0.204
AATAAACA,-0.0632
AAGACTGT,-0.0358
AAAGATTG,-0.19

# For quick reference, copied from above (set 5):
Change,binding fitness [natural log]
A57K,-0.573
E32I,-1.2
E32M,-1.13
A29H,-0.722
A29Y,-1.06
E33I,-1.18
K39L,-0.621
Q58R,-0.881
S47R,-0.483
